Results collected from several papers.
Numbers after ± are the reported error.
SCRIB PDZ3 domain: Protein scribble homolog, PDZ3 domain (SCRIB, Homo sapiens, UniProt Q14160)
UniProt Q14160, sequence (whole entry, looked up): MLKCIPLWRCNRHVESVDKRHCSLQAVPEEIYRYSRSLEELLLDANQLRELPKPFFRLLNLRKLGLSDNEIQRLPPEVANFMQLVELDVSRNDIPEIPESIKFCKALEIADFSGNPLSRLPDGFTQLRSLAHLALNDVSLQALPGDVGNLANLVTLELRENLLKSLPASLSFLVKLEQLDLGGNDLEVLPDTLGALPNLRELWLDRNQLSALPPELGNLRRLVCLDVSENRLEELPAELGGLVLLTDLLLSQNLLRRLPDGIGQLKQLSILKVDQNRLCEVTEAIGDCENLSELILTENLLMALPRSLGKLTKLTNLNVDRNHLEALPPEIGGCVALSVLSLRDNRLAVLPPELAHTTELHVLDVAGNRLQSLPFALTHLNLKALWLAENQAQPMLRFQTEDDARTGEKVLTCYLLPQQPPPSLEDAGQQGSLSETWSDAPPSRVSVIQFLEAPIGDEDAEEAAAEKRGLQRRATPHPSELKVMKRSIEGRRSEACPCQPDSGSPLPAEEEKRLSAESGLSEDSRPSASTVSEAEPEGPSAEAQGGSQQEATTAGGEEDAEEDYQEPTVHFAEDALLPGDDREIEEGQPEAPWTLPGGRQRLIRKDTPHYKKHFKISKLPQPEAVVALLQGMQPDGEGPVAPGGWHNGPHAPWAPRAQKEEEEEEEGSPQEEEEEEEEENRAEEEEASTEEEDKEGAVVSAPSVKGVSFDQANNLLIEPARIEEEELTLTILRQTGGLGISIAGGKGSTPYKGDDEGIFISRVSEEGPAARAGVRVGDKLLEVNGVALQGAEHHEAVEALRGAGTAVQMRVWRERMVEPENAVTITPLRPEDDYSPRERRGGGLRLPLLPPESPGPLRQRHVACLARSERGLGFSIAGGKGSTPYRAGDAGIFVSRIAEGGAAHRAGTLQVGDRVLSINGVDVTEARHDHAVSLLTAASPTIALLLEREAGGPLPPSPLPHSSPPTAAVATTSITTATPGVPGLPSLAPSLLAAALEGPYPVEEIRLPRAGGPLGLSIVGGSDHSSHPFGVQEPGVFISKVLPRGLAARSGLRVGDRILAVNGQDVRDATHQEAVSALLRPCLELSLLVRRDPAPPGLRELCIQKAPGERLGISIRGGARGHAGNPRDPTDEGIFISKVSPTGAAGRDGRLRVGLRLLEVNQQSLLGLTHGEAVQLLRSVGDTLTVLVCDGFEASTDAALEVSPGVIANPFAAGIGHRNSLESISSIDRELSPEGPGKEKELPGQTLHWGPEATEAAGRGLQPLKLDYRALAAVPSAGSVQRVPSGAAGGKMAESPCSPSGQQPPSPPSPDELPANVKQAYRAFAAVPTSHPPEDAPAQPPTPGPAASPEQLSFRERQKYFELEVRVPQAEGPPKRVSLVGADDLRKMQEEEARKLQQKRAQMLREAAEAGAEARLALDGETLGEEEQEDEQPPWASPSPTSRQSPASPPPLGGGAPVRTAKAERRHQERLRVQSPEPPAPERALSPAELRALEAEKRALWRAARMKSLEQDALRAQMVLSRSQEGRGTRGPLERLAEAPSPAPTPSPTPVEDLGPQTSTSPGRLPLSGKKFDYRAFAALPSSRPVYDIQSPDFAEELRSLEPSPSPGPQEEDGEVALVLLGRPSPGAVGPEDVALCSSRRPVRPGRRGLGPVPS
4'-phosphopantetheinyl transferase PptT: 4'-phosphopantetheinyl transferase PptT (Mycobacterium tuberculosis, UniProt O33336)
UniProt O33336, sequence (whole entry, looked up): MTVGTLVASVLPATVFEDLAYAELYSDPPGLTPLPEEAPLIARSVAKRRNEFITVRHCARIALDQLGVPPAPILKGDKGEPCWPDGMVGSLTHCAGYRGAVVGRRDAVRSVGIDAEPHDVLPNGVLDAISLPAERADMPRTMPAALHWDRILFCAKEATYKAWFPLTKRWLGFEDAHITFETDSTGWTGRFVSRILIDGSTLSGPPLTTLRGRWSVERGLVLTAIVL
UniProt P08311, sequence (whole entry, looked up): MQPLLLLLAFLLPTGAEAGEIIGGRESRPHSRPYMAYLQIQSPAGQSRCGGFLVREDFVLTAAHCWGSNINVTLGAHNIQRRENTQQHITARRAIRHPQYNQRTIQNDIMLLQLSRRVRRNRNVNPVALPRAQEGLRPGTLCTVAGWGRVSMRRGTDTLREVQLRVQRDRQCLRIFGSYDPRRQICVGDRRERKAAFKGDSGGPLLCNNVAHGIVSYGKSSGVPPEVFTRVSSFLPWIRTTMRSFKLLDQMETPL
UniProt P04756, sequence (whole entry, unmodified, looked up): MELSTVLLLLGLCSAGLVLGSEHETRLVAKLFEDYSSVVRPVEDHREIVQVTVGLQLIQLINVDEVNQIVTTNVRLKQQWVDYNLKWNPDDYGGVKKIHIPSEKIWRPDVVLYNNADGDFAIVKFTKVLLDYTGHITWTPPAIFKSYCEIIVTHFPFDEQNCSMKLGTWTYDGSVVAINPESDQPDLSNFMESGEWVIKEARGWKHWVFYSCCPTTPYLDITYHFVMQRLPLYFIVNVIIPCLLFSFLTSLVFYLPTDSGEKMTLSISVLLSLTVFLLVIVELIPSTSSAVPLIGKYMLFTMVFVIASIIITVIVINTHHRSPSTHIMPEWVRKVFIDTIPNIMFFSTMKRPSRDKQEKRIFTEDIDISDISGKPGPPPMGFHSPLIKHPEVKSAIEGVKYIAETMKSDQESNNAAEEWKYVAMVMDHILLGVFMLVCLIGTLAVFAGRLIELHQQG
UniProt P02716, sequence (whole entry, unmodified, looked up): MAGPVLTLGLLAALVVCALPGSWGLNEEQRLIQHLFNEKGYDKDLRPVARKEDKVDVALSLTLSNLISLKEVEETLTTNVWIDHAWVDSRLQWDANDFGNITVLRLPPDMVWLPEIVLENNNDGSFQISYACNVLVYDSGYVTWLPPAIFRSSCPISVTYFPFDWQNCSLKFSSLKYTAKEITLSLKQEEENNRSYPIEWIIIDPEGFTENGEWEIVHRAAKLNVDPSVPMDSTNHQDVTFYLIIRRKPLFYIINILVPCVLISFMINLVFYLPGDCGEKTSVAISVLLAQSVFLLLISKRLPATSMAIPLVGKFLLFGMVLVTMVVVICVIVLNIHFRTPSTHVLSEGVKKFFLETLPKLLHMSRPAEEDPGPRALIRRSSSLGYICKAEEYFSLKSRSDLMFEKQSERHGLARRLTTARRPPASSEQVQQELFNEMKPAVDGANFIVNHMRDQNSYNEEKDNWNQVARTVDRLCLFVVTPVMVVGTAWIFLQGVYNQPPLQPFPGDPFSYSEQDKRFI
UniProt P13798, sequence (whole entry, looked up): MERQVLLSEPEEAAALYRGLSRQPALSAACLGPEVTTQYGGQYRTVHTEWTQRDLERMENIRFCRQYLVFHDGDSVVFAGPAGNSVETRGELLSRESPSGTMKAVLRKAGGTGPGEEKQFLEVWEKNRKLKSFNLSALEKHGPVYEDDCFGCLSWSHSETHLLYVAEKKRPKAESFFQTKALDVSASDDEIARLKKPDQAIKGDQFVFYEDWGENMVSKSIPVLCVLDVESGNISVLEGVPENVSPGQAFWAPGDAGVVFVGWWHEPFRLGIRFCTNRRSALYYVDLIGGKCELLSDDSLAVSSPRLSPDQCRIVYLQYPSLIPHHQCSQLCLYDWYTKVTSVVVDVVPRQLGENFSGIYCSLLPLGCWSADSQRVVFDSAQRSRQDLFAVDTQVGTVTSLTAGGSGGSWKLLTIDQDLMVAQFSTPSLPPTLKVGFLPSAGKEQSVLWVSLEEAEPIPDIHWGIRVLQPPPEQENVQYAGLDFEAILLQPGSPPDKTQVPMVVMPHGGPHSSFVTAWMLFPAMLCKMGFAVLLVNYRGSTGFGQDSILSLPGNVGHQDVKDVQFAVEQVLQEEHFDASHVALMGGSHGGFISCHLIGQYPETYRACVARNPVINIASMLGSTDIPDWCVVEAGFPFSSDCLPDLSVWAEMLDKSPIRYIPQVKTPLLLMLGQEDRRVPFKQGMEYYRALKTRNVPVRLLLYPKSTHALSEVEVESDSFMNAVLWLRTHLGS
UniProt P20782, sequence (whole entry, unmodified, looked up): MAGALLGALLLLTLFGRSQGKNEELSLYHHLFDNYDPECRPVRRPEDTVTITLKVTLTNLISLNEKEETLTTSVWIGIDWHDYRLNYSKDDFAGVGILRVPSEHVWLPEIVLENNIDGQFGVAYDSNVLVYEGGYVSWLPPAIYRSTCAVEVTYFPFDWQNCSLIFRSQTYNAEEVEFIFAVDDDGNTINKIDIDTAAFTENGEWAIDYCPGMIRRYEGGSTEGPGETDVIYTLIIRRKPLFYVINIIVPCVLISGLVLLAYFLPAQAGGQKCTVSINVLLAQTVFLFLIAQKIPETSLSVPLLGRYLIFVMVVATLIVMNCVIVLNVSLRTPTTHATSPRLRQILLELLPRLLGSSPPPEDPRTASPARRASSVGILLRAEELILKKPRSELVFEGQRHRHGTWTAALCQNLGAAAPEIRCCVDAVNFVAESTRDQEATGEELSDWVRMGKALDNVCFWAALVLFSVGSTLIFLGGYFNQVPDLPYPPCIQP
UniProt Q7M4L6, sequence (whole entry, looked up): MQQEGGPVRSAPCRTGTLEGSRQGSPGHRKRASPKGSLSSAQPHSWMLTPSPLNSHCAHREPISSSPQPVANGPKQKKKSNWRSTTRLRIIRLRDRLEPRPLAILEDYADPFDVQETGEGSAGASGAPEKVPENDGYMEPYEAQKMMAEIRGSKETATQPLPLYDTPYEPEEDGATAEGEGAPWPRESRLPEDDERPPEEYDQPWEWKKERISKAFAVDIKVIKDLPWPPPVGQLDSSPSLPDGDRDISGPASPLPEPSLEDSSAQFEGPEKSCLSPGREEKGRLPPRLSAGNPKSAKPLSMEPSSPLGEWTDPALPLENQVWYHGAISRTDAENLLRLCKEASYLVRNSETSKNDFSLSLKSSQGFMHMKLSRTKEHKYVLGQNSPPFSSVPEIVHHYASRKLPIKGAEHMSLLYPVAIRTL

O=C(c1ccc(Cl)cc1)N1CCN2C(=O)N(OC(=O)N3CCOc4ccccc43)C(=O)C2C1 (stereo not drawn)
median ratio (APEH (Homo sapiens, UniProt P13798); enzyme activity, inhibitor, MS-based ABPP; SW-620 conditioned medium; 10 µM, 1 h, 37 °C; relative to: compound over DMSO, lower = stronger inhibition): 1.12

CC(C)C[C@H](NC(=O)[C@H](CO)NC(=O)[C@@H](NC(=O)[C@H](CCC(=O)O)NC(=O)[C@H](CCC(=O)O)NC(=O)[C@H](CS)NC(=O)[C@@H](NC(=O)[C@H](CCCNC(=N)N)NC(=O)[C@@H](NC(=O)[C@@H]1CCCN1)C(C)C)C(C)C)[C@@H](C)O)C(=O)O
Kd (SCRIB PDZ3 domain; binding, fluorescence polarization; solution; Scribble PDZ3 domain): 3.4 µM

CCNC(=N)NC(=O)Nc1ccc(Cl)cc1C(F)(F)F
IC50 (4'-phosphopantetheinyl transferase PptT; inhibitor): 12.5 µM

O=C1c2c(O)c(=O)ccn2N([C@@H]2c3ccccc3SCc3c2ccc(F)c3F)[C@@H]2COCCN12
Cmax (BALB/c mouse; subcutaneous, 0.5 mg/kg q24h): 34.3 ng/mL

C[N+](C)(C)C
Kd (Chrnd/Chrna1/Chrne (Mus musculus, UniProt P02716+P04756+P20782, G173P/S470W); single-channel kinetics; P chain side site): 100 µM

CC[C@H](C)[C@H](NC(=O)[C@H](Cc1ccccc1)NC(=O)[C@H](CCC(=O)O)NC(=O)[C@H](CCCNC(=N)N)NC(=O)[C@H](C)NC(=O)[C@H](C)NC(=O)[C@H](CCC(N)=O)NC(=O)[C@H](CCC(=O)O)NC(=O)[C@H](CCC(=O)O)NC(=O)[C@H](CC(C)C)NC(=O)[C@H](Cc1ccc(O)cc1)NC(=O)[C@H](CO)NC(=O)[C@H](CO)NC(=O)[C@@H](NC(=O)[C@H](CC(=O)O)NC(=O)[C@H](CO)NC(=O)[C@@H](NC(=O)[C@H](Cc1ccccc1)NC(=O)[C@@H](NC(=O)CNC(=O)[C@H](CCC(=O)O)NC(=O)[C@H](C)NC(=O)CCc1c[nH]cn1)[C@@H](C)O)[C@@H](C)O)C(C)C)C(=O)N[C@@H](C)C(=O)N[C@@H](Cc1c[nH]c2ccccc12)C(=O)N[C@@H](CC(C)C)C(=O)N[C@H](C(=O)N[C@@H](CCCNC(=N)N)C(=O)NCC(=O)N[C@@H](CCCNC(=N)N)C(=O)N[C@@H](CCCCNC(=O)COCCOCCNC(=O)COCCOCCNC(=O)CC[C@H](NC(=O)CCCCCCCCCCCCCCCCC(=O)O)C(=O)O)C(=O)NCC(=O)NCC(=O)N[C@@H](CO)C(=O)N[C@@H](CCCCNc1c(NCCCCCN(O)C(=O)CCC(=O)NCCCCCN(O)C(=O)CCC(=O)NCCCCCN(O)C(C)=O)c(=O)c1=O)C(=O)O)C(C)C [zirconium-89 labelled]
tissue uptake (rat, lung; iv, 3 nmol/kg, 72 h, ex vivo): 1.09 %ID/g

C[C@H]1CN(c2n[nH]c3nc(N[C@H]4CC[C@H](NS(=O)(=O)CCC(F)(F)F)CC4)ncc23)CCO1
IC50 (MYLK (Homo sapiens, UniProt Q15746); biochemical): ≥ 20 µM

CO[C@H]1C[C@@H]2CC[C@@H](C)[C@@](O)(O2)C(=O)C(=O)N2CCCC[C@H]2C(=O)O[C@H]([C@H](C)C[C@@H]2CC[C@@H](OC(=O)NCCOCCOCCOCCOCCOCCOCCOCCOCCC(=O)N3CCc4cc(Cn5nc(-c6ccc7oc(N)nc7c6)c6c(N)ncnc65)ccc4C3)[C@H](OC)C2)C[C@@H](O)[C@H](C)/C=C(\C)[C@@H](O)[C@@H](OC)C(=O)[C@H](C)C[C@H](C)/C=C/C=C/C=C/1C
TRAE incidence (phase 1 dose escalation, refers to: headache; advanced solid tumour patients; intravenous, 10 mg weekly, any grade): 12.5%

CC(C)[C@H](NC(=O)[C@H](CO)NC(=O)[C@@H](NC(=O)[C@@H](NC(=O)[C@@H](NC(=O)[C@H](CCCNC(=N)N)NC(=O)[C@@H](NC(=O)[C@H](CCCCN)NC(=O)[C@H](C)NC(=O)[C@@H](N)CO)C(C)C)[C@@H](C)O)C(C)C)[C@@H](C)O)C(=O)O
Kd (SCRIB PDZ3 domain; binding, fluorescence polarization; solution; Scribble PDZ3 domain): 30 µM

CCNC(=N)NC(=O)Nc1c(F)cc(F)cc1F
IC50 (4'-phosphopantetheinyl transferase PptT; inhibitor): > 100 µM

O=C(O)CNCP(=O)(O)O
Ki (EPSP synthase (Zea mays, UniProt A0A1D6NVZ6, K358R/P168S/P188S/T164I)): 871 ± 54 µM

COc1cc(Nc2ncc(F)c(Nc3ccc4c(n3)NC(=O)C(C)(C)O4)n2)cc(OC)c1OC
IC50 (Cathepsin G (CTSG, Homo sapiens, UniProt P08311)): > 10 µM

COc1ccc(N2C(=O)N(c3c(C)cccc3Cl)Cc3cnc(Nc4ccc(C5CCN(C)CC5)cc4OC)nc32)nc1
inhibition (PRKX (Homo sapiens, UniProt P51817); kinase activity; 0.5 µM): -3.54%

CCNC(=N)NC(=O)Nc1c(Cl)cc(Cl)cc1Cl
IC50 (4'-phosphopantetheinyl transferase PptT; inhibitor): 37.5 µM

CCCc1cc(O)c2c(c1)OC(C)(C)[C@@H]1CCC(C)=C[C@@H]21
EC50 (TRPV3 (Homo sapiens, UniProt Q8NET8, L563A); calcium uptake, agonist; HEK293S; mutant L563A, site 1): 6.04 ± 0.19 µM

CCCCCNC(=N)NC(=O)Nc1c(CC)cccc1CC
IC50 (4'-phosphopantetheinyl transferase PptT; inhibitor): > 100 µM

CC[C@H](C)[C@H](NC(=O)[C@H](CO)NC(=O)[C@H](CO)NC(=O)[C@H](CCC(=O)O)NC(=O)[C@H](C)NC(=O)[C@H](CO)NC(=O)[C@H](C)NC(=O)[C@@H](NC(=O)[C@H](CC(=O)O)NC(=O)[C@@H](N)C(C)C)[C@@H](C)CC)C(=O)O
Kd (SCRIB PDZ3 domain; binding, fluorescence polarization; solution; Scribble PDZ3 domain): 13.6 µM

CCNC(=N)NC(=O)Nc1ccc2c(c1)OCCO2
IC50 (4'-phosphopantetheinyl transferase PptT; inhibitor): > 100 µM

COc1cc2c(Oc3ccc4[nH]c(C)cc4c3F)ccnc2cc1OCC1(N)CC1
grade 3 Anorexia (paediatric recurrent refractory sarcoma; concentration not given, whole group): 0%

CC[C@H](C)[C@@H]1NC(=O)[C@@H]2CCCN2C(=O)[C@H](CC(C)C)NC(=O)[C@H](CC(C)C)NC(=O)CNC(=O)[C@@H](NC(=O)[C@@H](NC(=O)[C@H](CC(=O)O)NC(=O)CNC(=O)[C@@H](NC(=O)[C@H](C)NC(=O)CNC(=O)[C@H](CCCCN)NC(=O)[C@H](CC(C)C)NC(=O)[C@H](CC(C)C)NC(=O)[C@H](CCCCN)NC(=O)CNC(=O)[C@@H](NC(=O)[C@@H](N)CC(C)C)C(C)C)C(C)C)C(C)C)CSSC[C@@H](C(=O)O)NC1=O
log2 fold change (RNA-seq, refers to: Mmp19; mouse, traumatic brain injury model, frontal cortex and hippocampus; dose not given; relative to: TBI alone): -2.14

CC(C)C[C@H](NC(=O)[C@@H]1CCCN1C(=O)[C@@H](NC(=O)[C@H](CCC(=O)O)NC(=O)[C@H](CCCCN)NC(=O)[C@H](CO)NC(=O)[C@@H](NC(=O)[C@H](CCCNC(=N)N)NC(=O)[C@H](C)NC(=O)CN)C(C)C)[C@@H](C)O)C(=O)O
Kd (SCRIB PDZ3 domain; binding, fluorescence polarization; solution; Scribble PDZ3 domain): 1.7 µM

C[C@@H](O)[C@@H](CO)NC(=O)[C@@H](CCCNC(=N)N)NC(=O)[C@@H]1CCCN1C(=O)[C@@H]1CSSC[C@H](NC(=O)[C@H](Cc2ccccc2)NC(=O)CN2CCN(CC(=O)O)CCN(CC(=O)O)CCN(CC(=O)O)CC2)C(=O)N[C@@H](Cc2ccc(O)cc2)C(=O)N[C@@H](Cc2ccccc2)C(=O)N[C@@H](CCC(N)=O)C(=O)N[C@@H](CC(N)=O)C(=O)N1 [gallium-68 labelled]
tissue uptake (Wistar rat, adrenals; intravenous, 8 MBq, 60 min, group mean): 0.09 %ID/g

CSCC[C@H](NC(=O)[C@H](Cc1ccccc1)NC(=O)[C@H](C)NC(=O)[C@@H](N)Cc1c[nH]c2ccccc12)C(=O)N[C@@H](CCCNC(=N)N)C(=O)N[C@@H](Cc1ccc(O)cc1)C(=O)N[C@@H](CCCNC(=N)N)C(=O)N[C@@H](CCC(N)=O)C(=O)N[C@@H](CCC(N)=O)C(=O)N[C@@H](CC(C)C)C(=O)O
Kd (SCRIB PDZ3 domain; binding, fluorescence polarization; solution; Scribble PDZ3 domain): 32 µM

CSCC[C@H](NC(=O)CNC(=O)[C@H](Cc1ccccc1)NC(=O)[C@H](CC(=O)O)NC(=O)CNC(=O)c1ccc2c(c1)C(=O)OC21c2ccc(N(C)C)cc2Oc2cc(N(C)C)ccc21)C(=O)N[C@@H](CO)C(=O)N[C@@H](CCCNC(=N)N)C(=O)N[C@@H](CC(=O)O)C(=O)N[C@H](C(=O)N[C@@H](Cc1ccc(OP(=O)(O)O)cc1)C(=O)N[C@@H](CO)C(=O)N[C@H](C(=O)N[C@@H](CC(=O)O)C(=O)N[C@@H](Cc1ccc(O)cc1)C(=O)N[C@@H](Cc1ccc(O)cc1)C(=O)N[C@@H](CCCNC(=N)N)C(=O)N[C@H](C(=O)N[C@@H](CC(=O)O)C(=O)O)C(C)C)[C@@H](C)O)C(C)C
Kd (SH2 domain-containing adapter protein F, SH2 domain (SHF, Homo sapiens, UniProt Q7M4L6); binding): 1.4 µM

Repeated from above:
O=C1c2c(O)c(=O)ccn2N([C@@H]2c3ccccc3SCc3c2ccc(F)c3F)[C@@H]2COCCN12
Cmax (BALB/c mouse; subcutaneous, 0.5 mg/kg q24h): 34.3 ng/mL

CC(C)[C@H](NC(=O)[C@H](CO)NC(=O)[C@@H](NC(=O)[C@@H](NC(=O)[C@@H](NC(=O)[C@H](CCCNC(=N)N)NC(=O)[C@@H](NC(=O)[C@H](CCCCN)NC(=O)[C@H](C)NC(=O)[C@@H](N)CO)C(C)C)[C@@H](C)O)C(C)C)[C@@H](C)O)C(=O)O
Kd (SCRIB PDZ3 domain; binding, fluorescence polarization; solution; Scribble PDZ3 domain): 30 µM
